Experimental data from different studies.
A part holds a random share of what one study measured.

Set 1 — method: RNA Bind-n-Seq; form: RNA; sample: in vitro; tested at: 90 pmol; setting: 4-mer, random 30-nt RNA, single round; together with: 3 µM DMDA-PatA, 2 mM ADP, 2 mM phosphate; baseline: input library; reading: higher = stronger binding
Target: Eukaryotic initiation factor 4A-I (EIF4A1, Homo sapiens, UniProt P60842, residues 1-406, full length assumed)
Sequence of UniProt P60842 (whole entry, looked up): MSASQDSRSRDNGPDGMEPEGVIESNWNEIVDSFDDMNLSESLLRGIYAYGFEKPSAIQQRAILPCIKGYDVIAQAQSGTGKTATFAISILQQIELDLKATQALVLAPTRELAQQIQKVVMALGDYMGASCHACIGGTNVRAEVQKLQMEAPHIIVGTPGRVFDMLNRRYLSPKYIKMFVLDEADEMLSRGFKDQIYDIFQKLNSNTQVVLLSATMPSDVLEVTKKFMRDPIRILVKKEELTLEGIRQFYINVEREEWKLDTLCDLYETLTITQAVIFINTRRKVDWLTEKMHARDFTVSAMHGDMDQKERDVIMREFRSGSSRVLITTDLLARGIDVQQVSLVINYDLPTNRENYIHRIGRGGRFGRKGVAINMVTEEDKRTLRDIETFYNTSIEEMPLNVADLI
Sequence | 4-mer enrichment
GAAC | 0.741 fold
GCUG | 0.681 fold
AGAA | 1.16 fold
CGAC | 0.825 fold
UACG | 0.689 fold
CUCU | 0.546 fold
UGGU | 1.23 fold
ACCC | 0.71 fold
ACAU | 0.734 fold
GGAA | 1.08 fold
AGCA | 0.875 fold
CAAU | 0.839 fold
UAGG | 1.08 fold
UAAC | 0.691 fold

Set 2 — method: competition protein-binding microarray; form: double-stranded DNA, one strand shown; sample: in vitro; tested at: 2 µM; together with: Pho4 competitor, 0.05 µM; reading: higher = stronger binding
Target: Centromere-binding protein 1, full length, His-tagged (CBF1, Saccharomyces cerevisiae, UniProt P17106, residues 1-351)
Sequence of UniProt P17106 (whole entry, looked up): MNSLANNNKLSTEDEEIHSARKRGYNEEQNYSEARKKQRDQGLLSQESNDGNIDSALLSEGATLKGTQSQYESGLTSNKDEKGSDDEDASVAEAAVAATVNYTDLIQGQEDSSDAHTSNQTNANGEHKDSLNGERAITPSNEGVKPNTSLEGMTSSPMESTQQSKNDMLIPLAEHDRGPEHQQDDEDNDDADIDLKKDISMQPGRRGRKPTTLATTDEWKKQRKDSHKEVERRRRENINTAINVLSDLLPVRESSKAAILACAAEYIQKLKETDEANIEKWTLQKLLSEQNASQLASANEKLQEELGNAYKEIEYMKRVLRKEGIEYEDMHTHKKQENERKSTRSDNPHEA
Setting: whole 60-bp probe, lowest competitor level
Sequence | fluorescence intensity [a.u.]
GCCATTAGTTTTTTACCTGTGTGGCCATTATACATAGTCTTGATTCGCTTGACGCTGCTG | 76.5
GTATCTCATCGCTGGCACGGGCAGTACAGTGCCCTGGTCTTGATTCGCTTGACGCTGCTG | 60.1
TACATCTACCGCTGAAACGTGGATTCAAGGAACAGTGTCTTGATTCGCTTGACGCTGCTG | 73.3
CGTCCTAGTGATTGTCACGTCACTTCCATGAGGAAGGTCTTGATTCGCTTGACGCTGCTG | 130
TGCGCAACAACTTGGGTAGTGGGTGTATGTCTAGAAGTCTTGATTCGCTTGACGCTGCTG | 55.8
ATGGCCGCTGGTCCTCACGTGTATATATGGAGGGAGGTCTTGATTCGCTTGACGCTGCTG | 1170
TAACACATAACCCATCACGTGTTGGTCTTGATAGTCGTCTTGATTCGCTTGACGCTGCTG | 4560
CTTTGAAAAGCTGCCAACGTGACAAAACGTTCTGATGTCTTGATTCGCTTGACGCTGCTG | 475
TGAAATCGAGCCGGCCTCGTGAAAAGGTGTAAAAAAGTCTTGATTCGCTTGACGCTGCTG | 91
TACCCAGCGCGTCCGCACGTGCTTTTTATGGAAACTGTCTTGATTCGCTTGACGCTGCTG | 2240
CTTTCCCGATCTTGGTCGGTGGGTGTAGCACATTTGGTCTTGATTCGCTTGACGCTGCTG | 54.5
CGTCCTAGTGATTGTCACTAAACTTCCATGAGGAAGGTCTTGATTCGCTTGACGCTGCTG | 91.7
CGGGGTTAAGTTTGGAGAGTGGGTGGCTTGCAGCAGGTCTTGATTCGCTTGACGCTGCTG | 70.1
ACTAAAAGGCGCTGGCACGATTTTCTTTGATGCTAAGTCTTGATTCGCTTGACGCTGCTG | 65.1
CTTCTGTAAATTTGTCACAACACTTGACGCGCCCCGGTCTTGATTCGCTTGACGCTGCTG | 100
ACAAAATGGGTATTTCTCGTGATGGTCGTCCCAAAAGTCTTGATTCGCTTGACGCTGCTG | 117
TGCGCAACAACTTGATAAGTGGGTGTATGTCTAGAAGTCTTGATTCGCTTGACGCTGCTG | 70.2
CCATACGTTTACGTAGGCGTGCTTTTTTCAAAGAGTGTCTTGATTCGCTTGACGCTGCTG | 106

Set 3 — method: RNA Bind-n-Seq; form: RNA; sample: in vitro; tested at: 200 nM; setting: whole 134-nt RNA, ends assumed; together with: 150 mM LiCl; baseline: input library; reading: higher = stronger binding; library: 7-deaza-guanosine replaces G
Target: Ras GTPase-activating protein-binding protein 1, full length (G3BP1, Homo sapiens, UniProt Q13283)
Sequence of UniProt Q13283 (whole entry, looked up): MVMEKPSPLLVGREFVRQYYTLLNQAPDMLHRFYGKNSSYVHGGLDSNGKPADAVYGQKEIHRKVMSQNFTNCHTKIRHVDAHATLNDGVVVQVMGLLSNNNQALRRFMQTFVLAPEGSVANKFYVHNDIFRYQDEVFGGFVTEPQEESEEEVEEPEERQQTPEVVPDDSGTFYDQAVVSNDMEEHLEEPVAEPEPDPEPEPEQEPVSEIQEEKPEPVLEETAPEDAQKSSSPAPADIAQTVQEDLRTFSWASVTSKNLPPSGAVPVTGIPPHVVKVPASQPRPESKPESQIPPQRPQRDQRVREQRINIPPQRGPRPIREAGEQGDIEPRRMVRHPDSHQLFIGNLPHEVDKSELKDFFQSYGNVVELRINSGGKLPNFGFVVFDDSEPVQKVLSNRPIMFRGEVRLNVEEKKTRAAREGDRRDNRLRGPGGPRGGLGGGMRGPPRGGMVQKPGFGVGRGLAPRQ
Sequence | log2 enrichment
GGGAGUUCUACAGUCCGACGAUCGCAGGAAGUAAAAACAAAUGGAAAUGCUUCGGAUAGUGGCAGGGGUGGGGGUUGGUAAGGAAAGGGUGGGAUGGGAGUGGGUAAAGAGUUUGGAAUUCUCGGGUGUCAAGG | 0.111
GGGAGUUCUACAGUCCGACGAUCUCAAGUCCUGUGCUACACAUCGUAUGUACCGAAUCGGGCCGGGGCCGGCCGGGGAAAGUAUUAUGUUACGCCGUUCGGAUCUGCACUUCCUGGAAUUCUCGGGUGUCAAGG | 0.493
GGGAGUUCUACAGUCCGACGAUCCUCAAGUCCUGUGCUACACAUCGUAUGUACCGAAUCGGGUUGGUUGGGGUUGGAAAGUAUUAUGUUACGCCGUUCGGAUCUGCACUUCCAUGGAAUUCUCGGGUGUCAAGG | 0.24
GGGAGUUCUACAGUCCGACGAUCUGGGAGGUGGAUUUUGUUUAUUUUUUUAGCUCAUUUCCAGGGGUGGGAGUUUUUUUUUAAUAUGUGUCAUGAAUAAAGUUGUUUUUGAAAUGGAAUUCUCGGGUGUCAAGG | 0.126
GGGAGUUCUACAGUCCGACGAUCCACAGACAACACGCACCCACACAGACACAGAGGGAAGGGGUUGGGAUGGGGACAGGGUGCACAGCAGGGCGGGGUAAGACCCCAGCCCCUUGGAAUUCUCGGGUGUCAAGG | 1.04
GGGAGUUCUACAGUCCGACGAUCCUCAAGUCCUGUGCUACACAUCGUAUGUACCGAAUCGGAAAGGUGGAAAAAGGAAAGUAUUAUGUUACGCCGUUCGGAUCUGCACUUCCAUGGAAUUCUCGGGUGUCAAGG | 0.0157
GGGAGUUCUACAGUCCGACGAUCUCAAGUCCUGUGCUACACAUCGUAUGUACCGAAUCGGGUUUUUGGGUGGGUGGGAAAGUAUUAUGUUACGCCGUUCGGAUCUGCACUUCCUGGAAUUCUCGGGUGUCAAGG | -0.668
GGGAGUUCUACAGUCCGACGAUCCUGUGCUACACAUCGUAUGUACCGAAUCGGUUUUUUUGGGGUUUUUUUGGGUUUUUUUGGGGAAAGUAUUAUGUUACGCCGUUCGGAUCUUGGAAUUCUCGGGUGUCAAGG | 1.58

Set 4 — method: RNA Bind-n-Seq; form: RNA; sample: in vitro; tested at: 365 nM; baseline: no-protein control; reading: higher = stronger binding
Target: RNA binding protein fox-1 homolog 2, RRM domain, GST-SBP tag (RBFOX2, Homo sapiens, UniProt O43251-10, residues 100-194)
Setting: natural RNA segment, single round, ends assumed
Target sequence (chain): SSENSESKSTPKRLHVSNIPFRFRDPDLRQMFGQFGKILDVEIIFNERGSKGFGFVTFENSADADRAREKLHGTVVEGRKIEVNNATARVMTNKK
Sequence | RBNS enrichment (R)
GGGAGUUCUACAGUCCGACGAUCCUGCCCUACCUAAUUGCACUUCCAGUCCUGUCUGUCCACAUAUGUACGUGUAUAUAAUUAUACAUAUAUAUAUAUCUAUUUUGCCCAGGUCUGGGUUUCGUUUUUACCCAUGGAAUUCUCGGGUGCCAA | 0.526
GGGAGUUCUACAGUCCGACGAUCCUUCUGCUGCUCUGGUCUAUCCCUGAAAACAGAUGUCUUGAAACACUUUUCAUAUUCUUAAAAUAAUCUUCACUUCUGUUAAGAAGAACAUGUUGGUGGGUAAUUAUGCGUGGAAUUCUCGGGUGCCAA | 0.401
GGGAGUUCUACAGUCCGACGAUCGGCGUUUUUUUGGAAAGCAUAAAUUGUGACAUCAGUUAUCAUGCUACUUCUUGGUGACAUAAUAUAACCUUUGAAGUUAAUAUGAAGUGAUGUUUGCUCCAUAAACUCCAUGGAAUUCUCGGGUGCCAA | 0.358
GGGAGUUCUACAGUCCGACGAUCUGUACCAGCAGCCCUGCAUACAGGGCCCUGUGAGCCCCCCUGCAGUCCUGUGAGGCCCCUGAAGCUCUGUGAGGCCCCUGAAGCUCUGUGAACCCCCUGCAGCCCUGUGAUGGAAUUCUCGGGUGCCAA | 0.286
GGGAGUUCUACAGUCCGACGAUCAUGUACAGGUUCGAUCGUUUCUAUAGAAAUGGGUUUAUCUAAGAAAAGUCUUGGUUUGUCUUGCUGCUGUAAAAGGCCUUUCCAAACCCCUCCUUUUAUUCCUGUUUCCCUGGAAUUCUCGGGUGCCAA | 0.576
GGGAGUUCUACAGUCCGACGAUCAACAAAAAAACCUCUUAAUAUUCUGGAGUCAUCAUUCCCUUCGACAGCAUUUUCCUCUGCUUUGAAAGCCCCAGAAAUCAGUGUUGGCCAUGAUGACAACUACAGAAAAAUGGAAUUCUCGGGUGCCAA | 0.554
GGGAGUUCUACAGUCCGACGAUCUAAAUGCCCUGCUCUGAACACGAAGCUUAGUAUAAACUGAUGGAUAUCCCUACCUUGAAAGAAGAAAAGGUUCUUACUGCUUGGUCCUUGAUUUAUCACACAAAGCAGAAUGGAAUUCUCGGGUGCCAA | 0.575
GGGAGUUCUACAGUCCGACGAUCGUAAUAAGACUAUCGUCUUCCUACACAUAGGAGGCUCAUUCUCUGGACACACUAUCACCUAUUACAUUUUACUGAUUAACAAAUAAAUUGGAAUUUAAAAAUAUCGAUAUUGGAAUUCUCGGGUGCCAA | 0.626
